Experimental data of several laboratories.
Each numbered part is a random draw from the data of one study; scales do not carry over between parts.

Set 1 — method: protein-binding microarray; molecule type: double-stranded DNA, one strand shown; medium: in vitro; tested at: 250 nM; setting: 60-bp whole probe; with: salmon DNA 0.4 mg/ml; baseline: random background probes; direction: higher = stronger binding; shared flanks, not repeated: GCCTAGCAC … GTCTTGATTCGCTTGACGCTGCTG
Target: Interferon regulatory factor 7, full length, phosphomimetic (IRF7, Homo sapiens, UniProt Q92985, residues 1-503, S101K/S471D/S472D/S475D/S476D/S477D/S483D/S484D/S487D)
Construct (chain): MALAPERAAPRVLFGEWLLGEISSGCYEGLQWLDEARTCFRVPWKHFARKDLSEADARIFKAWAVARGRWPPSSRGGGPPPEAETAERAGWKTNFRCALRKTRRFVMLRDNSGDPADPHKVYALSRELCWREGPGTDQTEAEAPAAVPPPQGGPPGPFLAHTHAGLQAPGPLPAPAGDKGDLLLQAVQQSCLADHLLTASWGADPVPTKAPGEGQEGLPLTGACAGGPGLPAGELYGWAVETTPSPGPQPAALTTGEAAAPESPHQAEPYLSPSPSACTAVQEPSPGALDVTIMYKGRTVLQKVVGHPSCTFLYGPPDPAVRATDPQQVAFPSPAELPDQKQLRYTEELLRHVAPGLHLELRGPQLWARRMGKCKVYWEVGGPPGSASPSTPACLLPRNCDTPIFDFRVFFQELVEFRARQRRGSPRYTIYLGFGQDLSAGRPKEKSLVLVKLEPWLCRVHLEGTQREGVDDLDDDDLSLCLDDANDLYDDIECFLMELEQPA
Strand | log fluorescence [z-score]
TTAGATATCGGTTTTCGATTAGTGCTA | 3.42
TTAGGTTTCGACTATCGGTAAGTGCTA | 6.23
TTACGTCTCCTACTGCTTTAGTGCTAG | 0.256
TTAGGACTGCTTATCCTTAAGTGCTAG | 0.446
GACGGTATCCTTCTCCGGACGTGCTAG | 0.3
GACGGTCTCGGACTGGGTACGTGCTAG | 0.172
TCACTTTTATTTTTTTTACTGTGCTAG | 0.976
TAGATCGTCCCTTTGAGAGGGTGCTAG | 0.432
CTTACTTCCCAATTGTCTTTGTGCTAG | 1.68
TTAGGACTGGAACTGGGTTAGTGCTAG | -0.17
GACGGTTTCGGACTGCGGACGTGCTAG | 5.06
TCAACCATCTCATATAAAACTGTGCTA | 0.0877
TTAGGTCTCATACTGCTTTAGTGCTAG | 0.352
TCCCACAGTCGAAAGTCTGCGTGCTAG | -0.269
TTAGATATGGGGACTGGATTAGTGCTA | -0.0128
GACGGTATCCTGTTCCTGACGTGCTAG | 0.103
TCATGTGTGTGTATGTGACTGTGCTAG | -0.552
TCACTCACTCACAGACTCACGTGCTAG | 0.193

Set 2 — method: universal PBM; molecule type: double-stranded DNA, one strand shown; medium: in vitro; tested at: 600 nM; direction: higher = stronger binding
Target: Sal-like protein 4, full length isoform A (SALL4, Homo sapiens, UniProt Q9UJQ4, residues 1-1053)
Sequence of UniProt Q9UJQ4 (whole entry, looked up): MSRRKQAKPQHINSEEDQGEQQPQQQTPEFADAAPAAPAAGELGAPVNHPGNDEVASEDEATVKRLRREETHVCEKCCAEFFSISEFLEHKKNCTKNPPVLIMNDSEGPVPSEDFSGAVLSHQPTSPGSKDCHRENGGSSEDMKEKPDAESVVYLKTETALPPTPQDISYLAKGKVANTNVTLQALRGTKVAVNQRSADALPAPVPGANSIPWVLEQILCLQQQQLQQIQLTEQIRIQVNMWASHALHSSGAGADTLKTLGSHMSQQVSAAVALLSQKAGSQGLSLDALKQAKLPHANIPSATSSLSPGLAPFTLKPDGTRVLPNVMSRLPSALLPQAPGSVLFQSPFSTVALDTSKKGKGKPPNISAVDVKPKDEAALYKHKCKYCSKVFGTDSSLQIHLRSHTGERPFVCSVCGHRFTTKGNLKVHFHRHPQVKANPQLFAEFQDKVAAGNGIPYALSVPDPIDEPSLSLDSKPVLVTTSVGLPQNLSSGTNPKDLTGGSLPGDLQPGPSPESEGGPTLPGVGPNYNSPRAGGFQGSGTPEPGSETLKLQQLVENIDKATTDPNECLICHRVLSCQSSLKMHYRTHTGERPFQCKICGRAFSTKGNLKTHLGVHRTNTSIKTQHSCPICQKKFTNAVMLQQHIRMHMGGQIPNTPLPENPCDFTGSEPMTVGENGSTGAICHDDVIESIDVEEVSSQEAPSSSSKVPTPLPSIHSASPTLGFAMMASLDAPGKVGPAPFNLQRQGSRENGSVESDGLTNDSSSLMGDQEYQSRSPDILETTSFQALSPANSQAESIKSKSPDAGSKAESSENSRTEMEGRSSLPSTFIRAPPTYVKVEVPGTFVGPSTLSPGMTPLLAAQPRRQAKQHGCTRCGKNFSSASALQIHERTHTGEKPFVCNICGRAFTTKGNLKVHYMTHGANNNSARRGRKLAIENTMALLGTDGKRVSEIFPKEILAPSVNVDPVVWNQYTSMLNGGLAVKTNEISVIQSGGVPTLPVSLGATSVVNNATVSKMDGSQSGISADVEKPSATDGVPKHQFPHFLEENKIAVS
Setting: 8-mer, flanks averaged, mean of replicates
Strand | E-score
ATCTAGAA | 0.237
ATAGAGGC | -0.0496
CTCATAAC | 0.199
AGTCAGCG | -0.296
AAACGTGG | -0.1
GGCCTGAC | -0.233
GAGTAGCC | -0.251
ATATGCGC | 0.138
AGATTGGC | -0.0648
AAAAACTA | 0.215
AAAATCTT | 0.256
GTCTGAGA | -0.052
CCAGTCAG | -0.143
CACTGCAA | 0.0292
CGCATCGA | -0.0124
AGTATGAA | 0.262
TAATTCTA | 0.289
TCGTCGCA | -0.172
ACTAGACC | 0.0147
AAGCCGCT | -0.247
ACGAGCCT | -0.168
TAACCACA | 0.144
TAGCGGGA | -0.198
ATAGGCCG | -0.23
CATACTAA | 0.207

Set 3 — method: competition protein-binding microarray; molecule type: double-stranded DNA, one strand shown; medium: in vitro; tested at: 2 µM; with: Cbf1 competitor, 0.05 µM; direction: higher = stronger binding; shared flanks, not repeated: … GTCTTGATTCGCTTGACGCTGCTG
Target: Phosphate system positive regulatory protein PHO4, full length, GST-tagged (PHO4, Saccharomyces cerevisiae, UniProt P07270, residues 1-312)
Setting: whole 60-bp probe, lowest competitor level
Residues (chain): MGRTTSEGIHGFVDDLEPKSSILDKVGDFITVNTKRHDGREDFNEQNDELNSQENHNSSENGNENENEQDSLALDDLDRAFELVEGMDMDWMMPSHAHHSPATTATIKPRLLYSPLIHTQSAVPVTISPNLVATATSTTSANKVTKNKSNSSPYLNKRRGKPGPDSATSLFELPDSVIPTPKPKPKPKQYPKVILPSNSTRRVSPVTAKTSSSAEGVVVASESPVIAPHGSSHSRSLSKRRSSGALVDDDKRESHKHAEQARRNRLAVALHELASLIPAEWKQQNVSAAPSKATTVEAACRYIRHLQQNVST
Strand | fluorescence intensity
CAACAAACAGTAGCTCGCGTGGCCGAATGGCAACGC | 7530 a.u.
CCCTTAGACTTGCTGGGCGTGCGATTCAAGGGACAG | 8010 a.u.
TGCTGGCCAAACTGTGTCGTGGGACGCTGCTGTTGG | 5700 a.u.
CGGGGTTAAGTTTGTCACTGTACTTGCTTGCAGCAG | 3510 a.u.
AAATTACTAAGTTGACGCGTGGGTGACGCCGTATGA | 9640 a.u.
GTCTTGTCTCATTGTCAAGTGGGTGTCCCCACTTCA | 4430 a.u.
GGTCTAAACCCATCTCACGTTCCCTATTAGTGGGTG | 10700 a.u.
CTAACGAAGGTTTGAGCTGTGGGTGACAAGCCAAGT | 3800 a.u.
GTCGGTCAACATCCGCACGATGTTCCGTTTTTCTTT | 11900 a.u.
CTAACGAAGGTTTTTCACGTGTGTTACAAGCCAAGT | 13100 a.u.
CACACCAAAAGAGTGTGCGTGTCCTGTCATTCGAGT | 9490 a.u.
AAAGCGGTAATTTGTCACCTCACTTCACATATCTAT | 3800 a.u.
CATACCCAACCTTGAAATGTGGGTGAAGATATTTGT | 5660 a.u.
CGTCCTAGCGATTGACCCGTGGGTGCCATGAGGAAG | 10600 a.u.
TCATTGCTGGCTTGCCACGTGATGGCAATAGGCTTT | 15300 a.u.
AGGCTCTTTTCCCGTCACGTAAGGTGTGGAAGTTAG | 5450 a.u.

Set 4 — method: protein binding microarray; molecule type: double-stranded DNA, one strand shown; medium: in vitro; tested at: not given; baseline: not given; direction: higher = stronger binding
Target: Histone acetyltransferase KAT6A, both winged helices, GST fusion (KAT6A, Homo sapiens, UniProt Q92794, residues 1-181)
Setting: 8-mer, flanks averaged, mean of 2 arrays, mostly near background
Construct (chain): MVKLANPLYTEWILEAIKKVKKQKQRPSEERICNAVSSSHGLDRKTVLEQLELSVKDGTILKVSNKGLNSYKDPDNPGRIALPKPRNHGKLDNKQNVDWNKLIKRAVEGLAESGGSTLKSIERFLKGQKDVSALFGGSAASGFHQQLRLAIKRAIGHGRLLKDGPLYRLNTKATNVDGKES
Strand | E-score
CATGTGCG | 0.195
CCCTTGAA | -0.0184
CCTAACGA | -0.0728
CGTTATGC | 0.0319
CGGCTACG | 0.297
ATGCCGAC | 0.289
CGTATCAA | 0.0274
ATCGTATC | -0.151
GGTCTACA | 0.049
GTAGAAAA | -0.0669
AAAAACAA | 0.0172
CCAGGCAA | -0.0878
CTATTCGA | -0.128
CACTGTAC | -0.0739
CTGTACTC | -0.198
TCCCAGGA | -0.154

Set 5 — method: RNA Bind-n-Seq; molecule type: RNA; medium: in vitro; tested at: 365 nM; baseline: no-protein control; direction: higher = stronger binding
Target: RNA binding protein fox-1 homolog 2, RRM domain, GST-SBP tag (RBFOX2, Homo sapiens, UniProt O43251-10, residues 100-194)
Setting: natural RNA segment, single round, ends assumed
Shared flanks, not repeated: GGGAGUUCUACAGUCCGACGAUC … UGGAAUUCUCGGGUGCCAA
Residues (chain): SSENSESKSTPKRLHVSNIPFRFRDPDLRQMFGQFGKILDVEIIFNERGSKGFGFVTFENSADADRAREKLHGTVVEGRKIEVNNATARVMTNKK
Strand | RBNS enrichment (R)
AGUCAAGAUUUGGAAUUUAAGUCACUGGCAGGUAUCUGUGCAUUCAUAGAACUUAUAAAGGUCCCAGGAUCACUUUUAAGGGAUUUUUAUUAGUUUAAAGGUAAAUAAAG | 0.468
CAUUCUUCAGUGCCUCAUGACUGAAAACAAAAAACAAAAAAACGAAAGCAUCUUCACAAUGAAGCUUCCAGAUAGCACCGUUUUGCUAAAAGAUACAUUCUCAUUGUUUU | 0.312
UGUUCAGGCCUCCGCCCACCCUGAGUGGAAUGGAGCCAUGCAUUCAGUAAACUGACUUUAUUCUCCCUUUGUUUUGUGUUUAUUUCCUCCCAGGCUGACAGCUCUGAGUC | 1.27
GAAAGCUACUCAAAGCCAGCCGUAAGUCUAUGGUAGAAUGUGAUGGAACAUGUUGGUGGAAGCUUGUACAAUAGAACACAUUGGUGGGAGCUUGUACAUACUUUUUUAUG | 2.22
UUUAGAUUUGAUCUAGGUUGCCUCAAUAGCCUUGGGUGUUUUAUUUAAAUGAAGAGGGGAAUAAACAAGUUGACAGACUCAGGAAUGUAAACAGACAAGGAAGAUAUCCU | 0.659
ACAAAAUAAUGGUAAUUAAAGAAGCAAAGCUUCAGCCAUACUAAGGGGUUUCUUGUCUGCAGAGUGUAGAGACUCAUCAGUGUACAGAUGAGACCUGCUCAUCGUGCGAC | 0.368
CUGGAAGUGGUGUGUUCACAUACAGUGACCCUUGGCCACCAGACCACAGAGGAUGGAGCCUGGGAAGCAGCGAGGAAAUCACAGCCCCCUCGCCCCUGCCUCCCUUGCCC | 0.297
UGCAGUUUAGACACAUGUUUUUGGGGUGUCUUUCUGGUGUCCAAACUUUUGAGGCACUUUUCAAAUUUAAUAAGGAACCAUGUAAGGGUAGCAGCCCCUCCCUAAAGCAU | 0.529
UUCUGCUGCCAUACUCCCCUAGAACUGCUCGAACCCCCGUGCUUUUCUUUUUCUUCAUCUCCUUUUGCCCGUUAUGAUUUUCCUAUUCUGCAAAUACUGUCUUUCCUGGA | 1.26
GAAGCCUCCUGUCUCCCCUUUCCCCGCGUCCGAGAAGGCGGAAACCCACAGUGUUACCUGACUUAUGAAACUUGAAACCGCCUCUGGAGCCGCCAUUCUGCAGAGUAUUU | 0.648
CGGCUCUUGUAGAGGGCAUCCCCAGAUGUCCAAACCCUUUCCUGUGUACUGUUGAAAGCAUUGUUCUUCAGGGCCCUUGUCCAACAGUGGCCCGUGCAGUCUGGGGUCCA | 1.88
UCACAUUUAAGACUUCUAAAAUGGAAUAAUAGCCUUUUGUUUUUCAUGAGCAUAUUCGCACCCCUAUAUGAAUUACAGCAUUUAAAGUUCAAAAUCAGUAACUUUUAAUC | 0.944

For quick reference, copied from above (set 1):
Strand | log fluorescence [z-score]
TTAGGTTTCGACTATCGGTAAGTGCTA | 6.23
TTACGTCTCCTACTGCTTTAGTGCTAG | 0.256
TTAGGACTGCTTATCCTTAAGTGCTAG | 0.446
GACGGTATCCTTCTCCGGACGTGCTAG | 0.3
GACGGTCTCGGACTGGGTACGTGCTAG | 0.172
TCACTTTTATTTTTTTTACTGTGCTAG | 0.976
TAGATCGTCCCTTTGAGAGGGTGCTAG | 0.432
CTTACTTCCCAATTGTCTTTGTGCTAG | 1.68
TTAGGACTGGAACTGGGTTAGTGCTAG | -0.17
GACGGTTTCGGACTGCGGACGTGCTAG | 5.06
TCAACCATCTCATATAAAACTGTGCTA | 0.0877
